Published values gathered from unrelated publications.
Parts stem from different laboratories: compare values within a part only.

Set 1 — method: RNA Bind-n-Seq; molecule type: RNA; matrix: in vitro; tested at: 200 nM; setting: whole 134-nt RNA, ends assumed; added: 150 mM KCl; relative to: input library; reading: higher = stronger binding
Target: Fragile X messenger ribonucleoprotein 1, C-terminal low-complexity region (Fmr1, Mus musculus, UniProt P35922)
Shared flanks, not repeated: GGGAGUUCUACAGUCCGACGAUC … UGGAAUUCUCGGGUGUCAAGG
Strand | log2 enrichment
UGAAGACACAGCAUCCACCCGAUCUUCAUUCACUGUCCAAGACCUUAAACCUUUUACAGAAUAUGUGUUUAGGAUUCGCUGUAUGAAGGA | 0.179
GCUGUGACCCCAACGCCGGUGCCCGUGGUCGGGAGCCAGAUGACCAGACAAGCCCGGCGCCUCUACGUGGGCAACAUCCCCUUUGGCAUC | -0.174
CAAGUCCUGUGCUACACAUCGUAUGUACCGAAUCGGGGAAAGGGAAAGGGAAAGGGAAAGUAUUAUGUUACGCCGUUCGGAUCUGCACUU | 0.567
UUUUAGGAAGCUGCAGUAAAGGAAGAUGAAGAAGAAGUUUCAGAUAAGGGCAGUGAUUCUGAAGAAGAAGAAACCAAUAGAGAUUCCCAA | -0.762
CCUGUGCUACACAUCGUAUGUACCGAAUCGGGGAAAAAAAGGGGUUUUUUUGGGGUGGGGAAAGUAUUAUGUUACGCCGUUCGGAUCUGC | 0.492
CACAGACAACACGCACCCACACAGACACAGAGGGAAGGGGUUGGGAUGGGGACAGGGUGCACAGCAGGGCGGCGUAGGACCCCAGCCCCU | 1.09

Set 2 — method: protein-binding microarray; molecule type: double-stranded DNA, one strand shown; matrix: in vitro; tested at: 250 nM; setting: 60-bp whole probe; added: salmon DNA 0.4 mg/ml; relative to: random background probes; reading: higher = stronger binding; shared flanks, not repeated: GCCTAGCAC … GTCTTGATTCGCTTGACGCTGCTG
Target: Interferon regulatory factor 5, full length, phosphomimetic (IRF5, Homo sapiens, UniProt Q13568-2, residues 1-514, K96S/S451D/S453D/S456D/S462D)
Strand | log fluorescence
TCACTTTTCCATTTTGTACTGTGCTAG | 1.4 z-score
TCAAACTTGTATTTGTCACTGTGCTAG | 0.407 z-score
TACGATTTCGGGACTGGAGACGTGCTA | 1.76 z-score
TGAGATATCGGGTTTCGATTAGTGCTA | 7.22 z-score
GACGATTTCAGTCTCTAGACGTGCTAG | 1.29 z-score
GACAATATCAGACTGGAGACGTGCTAG | 0.214 z-score
CAGAATCCCCTTCTACTCTCGTGCTAG | 0.00646 z-score

Set 3 — method: protein binding microarray; molecule type: double-stranded DNA, one strand shown; matrix: in vitro; tested at: not given; relative to: not given; reading: higher = stronger binding
Target: Histone acetyltransferase KAT6A, both winged helices, GST fusion (KAT6A, Homo sapiens, UniProt Q92794, residues 1-181)
Setting: 8-mer, flanks averaged, mean of 2 arrays, mostly near background
Target sequence (chain): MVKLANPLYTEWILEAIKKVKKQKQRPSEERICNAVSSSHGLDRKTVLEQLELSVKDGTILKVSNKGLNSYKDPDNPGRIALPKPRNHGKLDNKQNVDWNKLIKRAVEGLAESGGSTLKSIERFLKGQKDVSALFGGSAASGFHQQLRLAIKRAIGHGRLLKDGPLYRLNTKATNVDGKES
Strand | E-score
TCGGAAAA | 0.169
CGCGGTAG | 0.299
AACTCAGA | -0.176
ACGTTTAG | -0.00843
ACCCAAAT | -0.152
CGCATCAC | 0.0855
CCGCTTGC | 0.234
GCTCCCTA | -0.0893
CTCCTACC | -0.0326

Set 4 — method: Sort-seq; measured: YFP reporter; matrix: E. coli; setting: PhoQ-PhoP variant library; added: 10 µM Mg2+; relative to: high Mg2+ state; reading: higher = stronger signaling
Molecule: PhoQ, residues 284 288 289 292 302 303 GASLAW
target | fold induction
PhoP, residues 12 14 15 18 19 QYCSL (Escherichia coli, UniProt P23836) | 1.14
PhoP, residues 12 14 15 18 19 STHWV (Escherichia coli, UniProt P23836) | 5.66
PhoP, residues 12 14 15 18 19 SHWTV (Escherichia coli, UniProt P23836) | 0.973

Excerpt of the above (set 2):
Strand | log fluorescence
TCACTTTTCCATTTTGTACTGTGCTAG | 1.4 z-score
TCAAACTTGTATTTGTCACTGTGCTAG | 0.407 z-score
